Measured values of several laboratories.
Each numbered part is a random draw from the data of one study; scales do not carry over between parts.
Sequence of UniProt P00519 (whole entry, unmodified, looked up): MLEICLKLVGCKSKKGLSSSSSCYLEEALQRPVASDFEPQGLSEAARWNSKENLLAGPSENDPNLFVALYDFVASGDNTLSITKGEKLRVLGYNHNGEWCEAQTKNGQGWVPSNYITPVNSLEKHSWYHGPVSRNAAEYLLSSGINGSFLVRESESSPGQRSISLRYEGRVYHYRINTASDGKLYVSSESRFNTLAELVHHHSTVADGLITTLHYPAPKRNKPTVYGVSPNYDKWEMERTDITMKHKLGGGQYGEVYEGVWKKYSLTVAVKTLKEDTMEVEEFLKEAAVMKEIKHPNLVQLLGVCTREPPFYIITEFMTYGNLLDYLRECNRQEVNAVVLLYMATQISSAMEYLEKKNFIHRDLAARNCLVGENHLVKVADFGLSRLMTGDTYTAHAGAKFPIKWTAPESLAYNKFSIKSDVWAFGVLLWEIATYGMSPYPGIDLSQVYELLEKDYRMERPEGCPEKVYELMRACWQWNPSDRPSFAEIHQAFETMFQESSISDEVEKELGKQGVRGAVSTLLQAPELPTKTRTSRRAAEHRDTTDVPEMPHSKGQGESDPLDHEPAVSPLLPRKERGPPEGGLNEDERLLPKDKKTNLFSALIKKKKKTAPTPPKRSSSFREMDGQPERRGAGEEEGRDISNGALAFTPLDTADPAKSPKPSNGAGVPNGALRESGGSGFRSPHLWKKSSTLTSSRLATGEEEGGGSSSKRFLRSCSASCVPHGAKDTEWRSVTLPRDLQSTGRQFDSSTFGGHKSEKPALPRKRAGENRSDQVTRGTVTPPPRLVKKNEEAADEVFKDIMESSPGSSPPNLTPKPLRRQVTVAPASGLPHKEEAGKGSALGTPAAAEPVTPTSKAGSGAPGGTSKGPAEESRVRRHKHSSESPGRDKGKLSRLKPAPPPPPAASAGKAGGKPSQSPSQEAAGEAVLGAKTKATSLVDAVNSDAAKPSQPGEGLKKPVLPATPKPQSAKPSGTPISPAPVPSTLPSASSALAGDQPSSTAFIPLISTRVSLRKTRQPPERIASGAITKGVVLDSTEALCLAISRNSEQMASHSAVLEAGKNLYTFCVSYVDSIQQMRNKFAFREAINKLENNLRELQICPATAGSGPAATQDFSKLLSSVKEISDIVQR
Sequence of UniProt P10721 (whole entry, unmodified, looked up): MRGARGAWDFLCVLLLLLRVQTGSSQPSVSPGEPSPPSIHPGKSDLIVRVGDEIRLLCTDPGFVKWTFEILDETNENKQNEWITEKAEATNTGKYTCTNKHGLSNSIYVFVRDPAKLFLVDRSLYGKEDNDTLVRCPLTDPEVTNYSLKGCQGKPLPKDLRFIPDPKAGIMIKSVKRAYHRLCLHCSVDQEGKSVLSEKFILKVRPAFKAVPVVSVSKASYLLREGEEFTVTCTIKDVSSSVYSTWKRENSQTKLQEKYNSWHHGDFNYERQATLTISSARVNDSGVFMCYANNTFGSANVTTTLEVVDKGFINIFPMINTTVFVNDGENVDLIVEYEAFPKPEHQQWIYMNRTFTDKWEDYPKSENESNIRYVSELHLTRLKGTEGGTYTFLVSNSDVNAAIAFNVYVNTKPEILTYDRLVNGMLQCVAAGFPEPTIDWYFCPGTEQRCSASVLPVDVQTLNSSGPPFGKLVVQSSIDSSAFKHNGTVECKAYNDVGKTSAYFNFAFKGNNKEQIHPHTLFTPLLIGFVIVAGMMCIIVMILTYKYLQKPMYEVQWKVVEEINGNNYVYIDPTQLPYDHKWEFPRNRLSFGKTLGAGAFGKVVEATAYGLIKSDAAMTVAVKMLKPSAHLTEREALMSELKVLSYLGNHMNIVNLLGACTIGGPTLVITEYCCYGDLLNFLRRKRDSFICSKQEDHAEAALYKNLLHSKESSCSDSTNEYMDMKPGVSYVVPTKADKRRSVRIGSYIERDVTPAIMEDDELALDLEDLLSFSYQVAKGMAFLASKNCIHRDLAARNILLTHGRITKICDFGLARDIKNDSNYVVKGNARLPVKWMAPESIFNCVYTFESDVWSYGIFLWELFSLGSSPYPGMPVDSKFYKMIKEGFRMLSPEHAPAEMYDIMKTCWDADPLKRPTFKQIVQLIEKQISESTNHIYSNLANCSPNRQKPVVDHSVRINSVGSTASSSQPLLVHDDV
Sequence of UniProt Q13131 (whole entry, looked up): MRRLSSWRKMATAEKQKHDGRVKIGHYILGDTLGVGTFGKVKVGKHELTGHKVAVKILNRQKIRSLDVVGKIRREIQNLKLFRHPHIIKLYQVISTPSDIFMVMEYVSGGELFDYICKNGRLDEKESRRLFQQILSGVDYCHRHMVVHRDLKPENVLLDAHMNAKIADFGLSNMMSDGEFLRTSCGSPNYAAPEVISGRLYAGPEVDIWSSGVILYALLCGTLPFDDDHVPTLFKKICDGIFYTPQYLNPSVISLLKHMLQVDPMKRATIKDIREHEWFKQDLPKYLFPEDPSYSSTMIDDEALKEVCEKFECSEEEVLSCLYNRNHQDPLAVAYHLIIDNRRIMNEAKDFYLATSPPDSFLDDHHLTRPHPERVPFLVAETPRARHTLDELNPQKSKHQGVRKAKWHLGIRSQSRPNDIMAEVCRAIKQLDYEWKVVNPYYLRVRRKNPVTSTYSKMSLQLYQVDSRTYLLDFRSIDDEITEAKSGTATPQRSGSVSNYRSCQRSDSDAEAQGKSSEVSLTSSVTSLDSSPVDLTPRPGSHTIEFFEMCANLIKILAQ
Sequence of UniProt Q96NX5 (whole entry, looked up): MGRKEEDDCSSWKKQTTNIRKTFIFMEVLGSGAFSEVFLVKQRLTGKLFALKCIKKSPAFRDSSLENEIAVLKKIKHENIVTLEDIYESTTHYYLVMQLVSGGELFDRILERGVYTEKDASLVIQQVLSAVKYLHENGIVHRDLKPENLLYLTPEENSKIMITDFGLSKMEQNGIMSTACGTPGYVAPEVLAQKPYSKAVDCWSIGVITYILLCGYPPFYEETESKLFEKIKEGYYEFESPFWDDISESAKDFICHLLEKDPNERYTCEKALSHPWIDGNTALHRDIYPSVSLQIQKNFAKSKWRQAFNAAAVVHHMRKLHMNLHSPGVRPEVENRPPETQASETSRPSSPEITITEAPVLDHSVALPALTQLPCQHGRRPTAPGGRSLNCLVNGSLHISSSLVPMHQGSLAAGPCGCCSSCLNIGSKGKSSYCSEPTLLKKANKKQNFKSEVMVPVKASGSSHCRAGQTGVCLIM
Sequence of UniProt O75385 (whole entry, looked up): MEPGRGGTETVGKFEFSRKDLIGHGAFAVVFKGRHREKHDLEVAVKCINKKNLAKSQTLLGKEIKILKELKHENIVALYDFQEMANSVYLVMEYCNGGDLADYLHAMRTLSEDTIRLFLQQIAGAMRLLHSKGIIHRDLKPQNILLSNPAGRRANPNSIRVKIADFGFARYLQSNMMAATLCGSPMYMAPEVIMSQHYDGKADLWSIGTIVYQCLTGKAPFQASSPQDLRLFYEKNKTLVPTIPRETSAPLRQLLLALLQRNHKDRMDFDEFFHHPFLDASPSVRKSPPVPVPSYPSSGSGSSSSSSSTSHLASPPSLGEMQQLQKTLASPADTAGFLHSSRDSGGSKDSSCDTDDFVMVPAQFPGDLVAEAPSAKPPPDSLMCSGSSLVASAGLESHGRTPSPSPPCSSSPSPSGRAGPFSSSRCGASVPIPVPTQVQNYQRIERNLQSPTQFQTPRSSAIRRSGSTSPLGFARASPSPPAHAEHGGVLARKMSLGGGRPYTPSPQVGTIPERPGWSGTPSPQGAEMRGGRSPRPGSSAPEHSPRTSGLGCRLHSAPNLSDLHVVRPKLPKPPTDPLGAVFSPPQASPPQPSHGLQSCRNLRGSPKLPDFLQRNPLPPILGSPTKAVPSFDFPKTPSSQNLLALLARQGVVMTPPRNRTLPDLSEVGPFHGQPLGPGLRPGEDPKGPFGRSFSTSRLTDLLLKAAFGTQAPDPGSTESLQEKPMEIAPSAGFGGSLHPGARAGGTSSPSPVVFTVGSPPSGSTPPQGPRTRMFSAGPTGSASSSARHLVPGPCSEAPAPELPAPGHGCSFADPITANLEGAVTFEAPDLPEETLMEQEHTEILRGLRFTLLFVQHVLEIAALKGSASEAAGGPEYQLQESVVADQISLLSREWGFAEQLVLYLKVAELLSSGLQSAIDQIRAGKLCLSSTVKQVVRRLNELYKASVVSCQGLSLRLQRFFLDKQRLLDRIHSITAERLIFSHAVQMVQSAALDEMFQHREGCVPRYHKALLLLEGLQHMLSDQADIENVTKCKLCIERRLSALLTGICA
Sequence of UniProt Q12852 (whole entry, looked up): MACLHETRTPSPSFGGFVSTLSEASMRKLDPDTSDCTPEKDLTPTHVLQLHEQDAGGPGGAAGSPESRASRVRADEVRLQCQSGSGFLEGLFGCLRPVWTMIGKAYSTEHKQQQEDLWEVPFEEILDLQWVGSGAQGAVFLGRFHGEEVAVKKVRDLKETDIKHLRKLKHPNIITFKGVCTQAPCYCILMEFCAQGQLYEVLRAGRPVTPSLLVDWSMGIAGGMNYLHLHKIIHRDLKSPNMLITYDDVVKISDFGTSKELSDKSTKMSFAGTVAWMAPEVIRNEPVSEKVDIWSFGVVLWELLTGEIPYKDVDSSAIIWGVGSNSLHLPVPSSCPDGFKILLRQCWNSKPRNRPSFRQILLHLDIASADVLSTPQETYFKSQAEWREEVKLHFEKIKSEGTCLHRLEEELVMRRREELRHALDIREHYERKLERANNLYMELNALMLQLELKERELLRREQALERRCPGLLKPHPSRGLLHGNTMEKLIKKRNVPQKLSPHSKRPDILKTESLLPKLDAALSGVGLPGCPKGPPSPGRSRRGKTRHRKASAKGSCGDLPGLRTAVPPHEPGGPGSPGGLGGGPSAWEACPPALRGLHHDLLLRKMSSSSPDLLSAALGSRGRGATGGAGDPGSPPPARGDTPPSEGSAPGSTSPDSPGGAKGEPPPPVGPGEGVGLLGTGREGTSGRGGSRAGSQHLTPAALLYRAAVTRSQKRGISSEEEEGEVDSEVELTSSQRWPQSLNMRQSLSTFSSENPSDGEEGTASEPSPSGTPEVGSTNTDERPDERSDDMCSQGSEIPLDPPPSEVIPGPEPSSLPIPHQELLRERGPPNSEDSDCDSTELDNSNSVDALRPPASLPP

Series 1 — concentration: 1 µM; measurement: remaining binding
SMILES: Cn1nc(C(F)(F)F)cc1-c1cnc(N2CCc3cc(S(=O)(=O)Nc4c(F)cc(Cl)cc4F)cc(N4CCCC4=O)c32)nc1
KIT (Homo sapiens, UniProt P10721, V559D); cell-free assay, competition with immobilised ligand: 99%
MAP3K12 (Homo sapiens, UniProt Q12852); cell-free assay, competition with immobilised ligand: 72%
PRKAA1 (Homo sapiens, UniProt Q13131); cell-free assay, competition with immobilised ligand: 98%
CAMK1D (Homo sapiens, UniProt Q8IU85); cell-free assay, competition with immobilised ligand: 99%
CDC42BPG (Homo sapiens, UniProt Q6DT37); competition binding: 100%
ALK (Homo sapiens, UniProt Q9UM73, L1196M); cell-free assay, competition with immobilised ligand: 78%
MAP3K20 (Homo sapiens, UniProt Q9NYL2); cell-free assay, competition with immobilised ligand: 98%
CAMK1G (Homo sapiens, UniProt Q96NX5); cell-free assay, competition with immobilised ligand: 100%
ULK1 (Homo sapiens, UniProt O75385); cell-free assay, competition with immobilised ligand: 79%
Tyrosine-protein kinase ABL1, non-phosphorylated (ABL1, Homo sapiens, UniProt P00519, F317I); binding, competition with immobilised ligand: 71%
FGFR3 (Homo sapiens, UniProt P22607); cell-free assay, competition with immobilised ligand: 100%
SRPK2 (Homo sapiens, UniProt P78362); binding, competition with immobilised ligand: 34%
CDK18 (Homo sapiens, UniProt Q07002); cell-free assay, competition with immobilised ligand: 100%

Series 2 — cell line: mouse MPNST tumor cells; method: high-content immunofluorescence imaging; measured: nuclear SOX9; concentration: 10 µM; time: 12 h; notes: mean of 2 replicates; baseline: DMSO control; direction: higher = more nuclear SOX9; measurement: nuclear SOX9 intensity
CCCc1nc(C(C)(C)O)c(C(=O)OCc2oc(=O)oc2C)n1Cc1ccc(-c2ccccc2-c2nnn[nH]2)cc1: 91.2 % of DMSO
C[C@@H](O)[C@H]1C(=O)N2C(C(=O)O)=C(S[C@@H]3CN[C@H](C(=O)N(C)C)C3)[C@H](C)[C@H]12: 91.5 % of DMSO
O=[N+]([O-])c1ccc(CN2CCOCCOCCN(Cc3ccc([N+](=O)[O-])cc3)CCOCC2)cc1: 114 % of DMSO
O=C(O)Cc1cc(I)c(Oc2ccc(O)c(I)c2)c(I)c1: 101 % of DMSO
COc1nc(-c2ccc3c(c2)OCO3)n(-c2ccc(NC(=O)CSc3ccccc3)cc2)n1: 94.4 % of DMSO

Series 3 — species: mouse; sample: microsomes or S9; concentration: 2 µM; time: 0.5 h; measurement: remaining compound
CCOC(=O)c1cc(C(C)C)sc1NC(=O)c1cc(Cl)ccc1OC: 32%
Clc1ccc2c(c1)nc(-c1cccnc1Cl)n1ncc(Br)c21: > 100%
CC(C)C[C@@H]1NC(=O)[C@H](Cc2nc(Br)[nH]c2Br)NC1=O: 77.9%

Series 4 — method: two-hybrid; baseline: out of 4 tests; direction: higher = firmer interaction; measurement: positive tests
Partner: ARF20 484-590 (Arabidopsis thaliana, UniProt Q9C7I9)
B1: IAA17 (Arabidopsis thaliana, UniProt P93830); chain MMGSVELNLRETELCLGLPGGDTVAPVTGNKRGFSETVDLKLNLNNEPANKEGSTTHDVVTFDSKEKSACPKDPAKPPAKAQVVGWPPVRSYRKNVMVSCQKSSGGPEAAAFVKVSMDGAPYLRKIDLRMYKSYDELSNALSNMFSSFTMGKHGGEEGMIDFMNERKLMDLVNSWDYVPSYEDKDGDWMLVGDVPWPMFVDTCKRLRLMKGSDAIGLAPRAMEKCKSRA
B2: IAA19 (Arabidopsis thaliana, UniProt O24409); chain MEKEGLGLEITELRLGLPGRDVAEKMMKKRAFTEMNMTSSGSNSDQCESGVVSSGGDAEKVNDSPAAKSQVVGWPPVCSYRKKNSCKEASTTKVGLGYVKVSMDGVPYLRKMDLGSSQGYDDLAFALDKLFGFRGIGVALKDGDNCEYVTIYEDKDGDWMLAGDVPWGMFLESCKRLRIMKRSDATGFGLQPRGVDE
B3: IAA32 (Arabidopsis thaliana, UniProt Q8RYC6); chain MDPNTPADFFKGSSKFHTYYSQTKKGGGVIDLGLSLRTIQHETYLPPARMIGLDGYGELIDWSQPSYNSITQLKSEDTGHQRLAQGYYNNEGESRGKYAYVKVNLDGLVVGRKVCLVDQGAYATLALQLNDMFGMQTVSGLRLFQTESEFSLVYRDREGIWRNVGDVPWKEFVESVDRMRIARRNDALLPF
B4: IAA28 (Arabidopsis thaliana, UniProt Q9XFM0); chain MEEEKRLELRLAPPCHQFTSNNNINGSKQKSSTKETSFLSNNRVEVAPVVGWPPVRSSRRNLTAQLKEEMKKKESDEEKELYVKINMEGVPIGRKVNLSAYNNYQQLSHAVDQLFSKKDSWDLNRQYTLVYEDTEGDKVLVGDVPWEMFVSTVKRLHVLKTSHAFSLSPRKHGKE
B5: IAA14 (Arabidopsis thaliana, UniProt Q38832); chain MNLKETELCLGLPGGTETVESPAKSGVGNKRGFSETVDLKLNLQSNKQGHVDLNTNGAPKEKTFLKDPSKPPAKAQVVGWPPVRNYRKNVMANQKSGEAEEAMSSGGGTVAFVKVSMDGAPYLRKVDLKMYTSYKDLSDALAKMFSSFTMGSYGAQGMIDFMNESKVMDLLNSSEYVPSYEDKDGDWMLVGDVPWPMFVESCKRLRIMKGSEAIGLAPRAMEKFKNRS
B6: IAA12 (Arabidopsis thaliana, UniProt Q38830); chain MRGVSELEVGKSNLPAESELELGLGLSLGGGAWKERGRILTAKDFPSVGSKRSAESSSHQGASPPRSSQVVGWPPIGLHRMNSLVNNQAMKAARAEEGDGEKKVVKNDELKDVSMKVNPKVQGLGFVKVNMDGVGIGRKVDMRAHSSYENLAQTLEEMFFGMTGTTCREKVKPLRLLDGSSDFVLTYEDKEGDWMLVGDVPWRMFINSVKRLRIMGTSEASGLAPRRQEQKDRQRNNPV
B7: ARF2 727-859 (Arabidopsis thaliana, UniProt Q94JM3); chain TKTNSSRSCTKVHKQGIALGRSVDLSKFQNYEELVAELDRLFEFNGELMAPKKDWLIVYTDEENDMMLVGDDPWQEFCCMVRKIFIYTKEEVRKMNPGTLSCRSEEEAVVGEGSDAKDAKSASNPSLSSAGNS
Construct (chain): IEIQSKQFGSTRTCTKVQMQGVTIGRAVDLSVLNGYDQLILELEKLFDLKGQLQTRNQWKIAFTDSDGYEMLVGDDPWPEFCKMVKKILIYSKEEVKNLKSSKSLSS
B1 (IAA17): 4
B2 (IAA19): 1
B3 (IAA32): 0
B4 (IAA28): 0
B5 (IAA14): 0
B6 (IAA12): 0
B7 (ARF2 727-859): 1

Excerpt of the above (series 1):
KIT (Homo sapiens, UniProt P10721, V559D); cell-free assay, competition with immobilised ligand: 99%
MAP3K12 (Homo sapiens, UniProt Q12852); cell-free assay, competition with immobilised ligand: 72%
PRKAA1 (Homo sapiens, UniProt Q13131); cell-free assay, competition with immobilised ligand: 98%
CAMK1D (Homo sapiens, UniProt Q8IU85); cell-free assay, competition with immobilised ligand: 99%
CDC42BPG (Homo sapiens, UniProt Q6DT37); competition binding: 100%
